{"data": "Assay results of several laboratories", "note": "Lines come from different studies, so protocols differ. ± gives the spread as reported."}
{"Structure (SMILES)": "CCOC(=O)C1=C(C)NC2=C(C(=O)CC(C)(C)C2)C1c1ccc(OCC(=O)NN=Cc2cccc(C=O)c2)cc1OCC(=O)NN=Cc1cccc(C=O)c1 (stereo not shown)", "organism": "Proteus vulgaris", "test system": "FMC II", "setting": "concentration not given, 24 h", "measurement": "inhibition zone diameter", "value": "2.6 ± 0.3 mm"}
{"Structure (SMILES)": "CC(F)(F)c1nc2nc(CO)cc(Nc3ccc(C(F)(F)F)nc3)n2n1", "organism": "Plasmodium falciparum", "test": "blood stage growth", "test system": "3D7, Albumax medium", "setting": "72 h", "measurement": "EC50", "value": "0.62 µM"}
{"Structure (SMILES)": "O=S(=O)(c1ccc(Cl)cc1)N1CCN(c2ccc(F)cc2)CC1", "organism": "Saccharomyces cerevisiae", "test": "cell growth, doubling time", "test system": "SEC14 -136 allele", "setting": "Sec14 reduced ~7-fold", "measurement": "IC50", "value": "> 200 µM"}
{"Structure (SMILES)": "CN1CCc2cc3c(c4c2C1Cc1ccccc1-4)OCO3 (stereo not shown)", "organism": "Schistosoma mansoni", "test": "5-HT evoked movement, antagonist", "test system": "adult worms", "setting": "1 h, with: serotonin 200 µM", "measurement": "IC50", "value": "1 to 10 µM"}
{"Structure (SMILES)": "COC(=O)[C@@H]1C(C=Nc2cc(Cl)ccc2O)=Cc2cc3c(cc2[C@H]1c1cc(OC)c(OC)c(OC)c1)OCO3", "organism": "Leishmania infantum", "test": "iRFP fluorescence", "test system": "mouse splenocytes infected, amastigote, iRFP, ex vivo splenic explant", "setting": "48 h", "measurement": "EC50", "value": "53.4 ± 4.5 µM"}
{"Structure (SMILES)": "O=[N+]([O-])c1cc(CN2CCN(c3ccccc3F)CC2)ccc1Cl", "organism": "Saccharomyces cerevisiae", "test": "cell growth, doubling time", "test system": "wild type", "measurement": "IC50", "value": "91 ± 23 µM"}
{"Structure (SMILES)": "COC(=O)[C@@H]1C(c2nc3cc(Cl)ccc3o2)=Cc2cc3c(cc2[C@H]1c1cc(OC)c(OC)c(OC)c1)OCO3", "organism": "Leishmania infantum", "test": "Alamar Blue", "test system": "HepG2", "scale": "relative to: CC50 HepG2 over EC50 amastigotes", "measurement": "selectivity index", "value": 3.9}
{"Structure (SMILES)": "CC(C)[C@H](NC(=O)N[C@@H](CCCCN)C(=O)N[C@@H](CNC(=O)CCCCCCCCCCS)C(=O)NCCCNC(C[C@H]1O[C@@H](n2ccc(=O)[nH]c2=O)[C@H](O)[C@@H]1O)C(=O)O)C(=O)O (stereo partly shown)", "organism": "Escherichia coli", "test": "growth", "test system": "DH5alpha", "measurement": "IC50", "value": "> 100 µg/mL"}
{"Structure (SMILES)": "O=[N+]([O-])c1cc(CN2CCN(c3ccc(Cl)cc3)CC2)ccc1Cl", "organism": "Saccharomyces cerevisiae", "test": "cell growth, doubling time", "test system": "SEC14 -136 allele", "setting": "Sec14 reduced ~7-fold", "measurement": "IC50", "value": "131 ± 52 µM"}
{"Structure (SMILES)": "COc1cc([C@@H]2c3cc4c(cc3[C@@H](C=C(C)C)[C@H]3COC(=O)[C@H]23)OCO4)cc(OC)c1OC", "organism": "Leishmania", "test system": "mouse splenocytes", "scale": "relative to: CC50 over amastigote EC50", "measurement": "selectivity index", "value": 0.2}
